Measured values from different studies.
Numbered parts are unrelated; each lists some results of a single study.
UniProt Q13554, sequence (whole entry, looked up): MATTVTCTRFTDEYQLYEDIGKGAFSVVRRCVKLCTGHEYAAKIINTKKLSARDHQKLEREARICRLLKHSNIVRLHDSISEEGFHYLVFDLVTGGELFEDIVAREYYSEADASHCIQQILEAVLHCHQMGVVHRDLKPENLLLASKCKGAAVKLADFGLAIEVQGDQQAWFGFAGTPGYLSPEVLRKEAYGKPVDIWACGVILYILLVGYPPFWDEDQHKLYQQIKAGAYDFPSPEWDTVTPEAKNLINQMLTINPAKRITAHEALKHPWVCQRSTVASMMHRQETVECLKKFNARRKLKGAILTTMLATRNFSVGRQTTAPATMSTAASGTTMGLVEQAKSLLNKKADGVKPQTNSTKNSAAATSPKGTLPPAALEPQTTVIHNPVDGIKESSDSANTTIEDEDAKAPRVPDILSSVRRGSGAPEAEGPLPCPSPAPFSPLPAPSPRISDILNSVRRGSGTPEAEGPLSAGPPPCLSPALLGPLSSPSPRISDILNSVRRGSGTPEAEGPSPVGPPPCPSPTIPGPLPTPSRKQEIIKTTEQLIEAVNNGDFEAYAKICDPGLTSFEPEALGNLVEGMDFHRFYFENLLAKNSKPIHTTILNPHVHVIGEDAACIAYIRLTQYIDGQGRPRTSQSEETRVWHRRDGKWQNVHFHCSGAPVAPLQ
UniProt P15735, sequence (whole entry, looked up): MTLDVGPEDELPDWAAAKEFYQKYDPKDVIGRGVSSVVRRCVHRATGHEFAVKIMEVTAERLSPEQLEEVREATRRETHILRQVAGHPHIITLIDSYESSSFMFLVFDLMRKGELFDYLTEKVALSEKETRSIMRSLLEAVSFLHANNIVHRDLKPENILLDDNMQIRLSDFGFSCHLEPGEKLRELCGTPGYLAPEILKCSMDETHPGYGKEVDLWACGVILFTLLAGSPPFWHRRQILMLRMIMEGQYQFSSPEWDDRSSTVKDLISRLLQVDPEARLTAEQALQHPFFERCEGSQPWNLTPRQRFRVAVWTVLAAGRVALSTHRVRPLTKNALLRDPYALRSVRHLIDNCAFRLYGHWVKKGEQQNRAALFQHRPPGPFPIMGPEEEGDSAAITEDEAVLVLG
UniProt Q9Y4K4, sequence (whole entry, looked up): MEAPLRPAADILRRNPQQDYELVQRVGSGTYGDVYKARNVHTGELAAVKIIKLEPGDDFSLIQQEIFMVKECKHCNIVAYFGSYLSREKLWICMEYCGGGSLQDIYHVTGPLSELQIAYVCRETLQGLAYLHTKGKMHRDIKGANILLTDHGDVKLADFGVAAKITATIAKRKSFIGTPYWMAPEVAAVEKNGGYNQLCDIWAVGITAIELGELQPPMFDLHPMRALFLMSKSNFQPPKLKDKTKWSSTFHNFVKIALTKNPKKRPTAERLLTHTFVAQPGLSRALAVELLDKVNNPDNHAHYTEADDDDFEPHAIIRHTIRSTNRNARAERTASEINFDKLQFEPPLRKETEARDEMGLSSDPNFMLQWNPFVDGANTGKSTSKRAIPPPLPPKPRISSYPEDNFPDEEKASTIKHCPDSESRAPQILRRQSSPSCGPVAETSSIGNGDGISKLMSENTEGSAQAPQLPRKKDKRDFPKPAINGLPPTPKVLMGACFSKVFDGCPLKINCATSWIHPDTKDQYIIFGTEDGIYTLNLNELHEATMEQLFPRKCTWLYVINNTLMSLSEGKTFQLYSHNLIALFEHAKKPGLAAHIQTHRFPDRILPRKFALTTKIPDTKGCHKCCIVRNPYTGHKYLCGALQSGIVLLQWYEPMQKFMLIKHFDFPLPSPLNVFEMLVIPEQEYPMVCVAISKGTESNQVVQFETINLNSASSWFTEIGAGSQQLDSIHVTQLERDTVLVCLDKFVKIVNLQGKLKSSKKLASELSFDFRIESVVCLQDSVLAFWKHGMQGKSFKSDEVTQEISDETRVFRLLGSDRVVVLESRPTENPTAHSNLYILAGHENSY
UniProt Q96GD4, sequence (whole entry, looked up): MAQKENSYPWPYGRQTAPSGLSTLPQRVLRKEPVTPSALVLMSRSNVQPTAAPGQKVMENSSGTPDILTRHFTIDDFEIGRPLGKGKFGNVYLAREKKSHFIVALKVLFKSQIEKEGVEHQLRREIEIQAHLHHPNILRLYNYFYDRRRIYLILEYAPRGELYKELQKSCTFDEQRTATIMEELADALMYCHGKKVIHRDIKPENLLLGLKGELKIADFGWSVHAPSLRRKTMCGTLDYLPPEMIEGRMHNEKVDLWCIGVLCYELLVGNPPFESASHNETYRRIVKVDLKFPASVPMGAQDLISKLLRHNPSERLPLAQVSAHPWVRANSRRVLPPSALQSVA
UniProt O14965, sequence (whole entry, looked up): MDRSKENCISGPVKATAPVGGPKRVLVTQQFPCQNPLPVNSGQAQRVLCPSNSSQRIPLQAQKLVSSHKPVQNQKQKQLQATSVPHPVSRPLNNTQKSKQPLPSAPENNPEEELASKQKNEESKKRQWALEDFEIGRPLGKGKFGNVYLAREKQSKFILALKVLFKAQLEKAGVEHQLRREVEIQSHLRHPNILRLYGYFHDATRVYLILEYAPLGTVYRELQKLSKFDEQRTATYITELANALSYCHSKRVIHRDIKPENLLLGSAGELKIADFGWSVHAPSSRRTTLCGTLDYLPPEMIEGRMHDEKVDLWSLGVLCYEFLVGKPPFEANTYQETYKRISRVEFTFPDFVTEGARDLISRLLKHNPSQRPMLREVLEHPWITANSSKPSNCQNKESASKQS
UniProt Q99986, sequence (whole entry, looked up): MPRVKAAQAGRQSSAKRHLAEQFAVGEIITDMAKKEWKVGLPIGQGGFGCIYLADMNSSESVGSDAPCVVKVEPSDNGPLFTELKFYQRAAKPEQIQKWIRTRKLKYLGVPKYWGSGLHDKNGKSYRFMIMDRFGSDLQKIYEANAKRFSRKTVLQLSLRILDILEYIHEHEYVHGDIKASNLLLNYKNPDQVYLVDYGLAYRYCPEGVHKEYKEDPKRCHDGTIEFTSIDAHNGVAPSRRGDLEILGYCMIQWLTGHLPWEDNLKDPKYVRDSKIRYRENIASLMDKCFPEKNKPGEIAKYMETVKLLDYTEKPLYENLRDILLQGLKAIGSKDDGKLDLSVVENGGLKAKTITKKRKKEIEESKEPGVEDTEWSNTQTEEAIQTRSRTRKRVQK
UniProt P14616, sequence (whole entry, looked up): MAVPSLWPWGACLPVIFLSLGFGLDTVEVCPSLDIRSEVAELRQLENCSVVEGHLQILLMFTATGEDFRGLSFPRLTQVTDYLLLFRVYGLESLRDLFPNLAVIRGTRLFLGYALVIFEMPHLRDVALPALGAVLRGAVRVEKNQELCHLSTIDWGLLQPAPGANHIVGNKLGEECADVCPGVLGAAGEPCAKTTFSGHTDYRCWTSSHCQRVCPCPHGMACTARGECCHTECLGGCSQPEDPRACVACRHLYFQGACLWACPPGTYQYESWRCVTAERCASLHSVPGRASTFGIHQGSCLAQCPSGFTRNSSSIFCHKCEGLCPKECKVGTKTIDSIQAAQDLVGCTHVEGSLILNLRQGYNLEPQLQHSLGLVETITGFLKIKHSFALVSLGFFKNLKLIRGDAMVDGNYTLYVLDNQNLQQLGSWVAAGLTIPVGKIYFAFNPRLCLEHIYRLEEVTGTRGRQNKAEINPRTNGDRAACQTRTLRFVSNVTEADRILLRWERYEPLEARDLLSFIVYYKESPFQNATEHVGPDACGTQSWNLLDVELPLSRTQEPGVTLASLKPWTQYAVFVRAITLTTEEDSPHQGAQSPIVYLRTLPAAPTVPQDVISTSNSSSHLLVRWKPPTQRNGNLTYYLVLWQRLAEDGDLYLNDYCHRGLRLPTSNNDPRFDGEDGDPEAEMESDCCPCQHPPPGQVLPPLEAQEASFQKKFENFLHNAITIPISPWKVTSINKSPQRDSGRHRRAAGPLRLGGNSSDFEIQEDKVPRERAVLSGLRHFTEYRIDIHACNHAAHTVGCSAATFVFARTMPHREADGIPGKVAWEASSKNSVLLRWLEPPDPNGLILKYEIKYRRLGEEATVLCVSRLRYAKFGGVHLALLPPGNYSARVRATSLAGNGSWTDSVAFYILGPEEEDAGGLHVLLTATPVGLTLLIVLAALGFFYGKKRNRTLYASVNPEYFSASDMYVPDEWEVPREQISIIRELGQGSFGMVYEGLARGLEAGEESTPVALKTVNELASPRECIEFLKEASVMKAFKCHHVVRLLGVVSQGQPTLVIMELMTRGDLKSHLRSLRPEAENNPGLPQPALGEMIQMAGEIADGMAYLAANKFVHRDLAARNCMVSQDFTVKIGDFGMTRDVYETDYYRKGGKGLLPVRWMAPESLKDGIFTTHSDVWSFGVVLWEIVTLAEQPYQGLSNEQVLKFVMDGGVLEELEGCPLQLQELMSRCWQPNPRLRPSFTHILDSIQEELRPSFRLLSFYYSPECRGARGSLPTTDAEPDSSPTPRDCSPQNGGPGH
UniProt P08631, sequence (whole entry, looked up): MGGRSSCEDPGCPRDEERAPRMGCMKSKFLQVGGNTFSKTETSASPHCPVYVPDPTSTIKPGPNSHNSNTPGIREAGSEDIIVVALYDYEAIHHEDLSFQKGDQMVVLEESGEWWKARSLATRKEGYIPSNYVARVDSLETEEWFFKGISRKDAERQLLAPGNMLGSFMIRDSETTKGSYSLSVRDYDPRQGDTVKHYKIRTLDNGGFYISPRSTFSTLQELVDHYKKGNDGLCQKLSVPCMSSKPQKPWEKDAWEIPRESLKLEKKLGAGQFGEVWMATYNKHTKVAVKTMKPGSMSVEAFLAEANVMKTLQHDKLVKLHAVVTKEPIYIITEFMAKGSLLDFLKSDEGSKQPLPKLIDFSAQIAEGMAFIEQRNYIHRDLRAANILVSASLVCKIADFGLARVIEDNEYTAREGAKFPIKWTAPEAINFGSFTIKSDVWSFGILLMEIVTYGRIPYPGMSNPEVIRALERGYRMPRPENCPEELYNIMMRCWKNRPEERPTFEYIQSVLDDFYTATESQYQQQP

Series 1
SMILES: Cc1ccc(S(=O)(=O)/C=C/C#N)cc1
Read-out: enzyme activity
Action: inhibitor
Concentration: 0.5 µM
Relative to: control
It gave 102% for remaining activity (Fibroblast growth factor receptor 2 (FGFR2, Homo sapiens, UniProt P21802)).
For Mitogen-activated protein kinase kinase kinase 9 (MAP3K9, Homo sapiens, UniProt P80192): remaining activity read 96.9%.
It gave 103% for remaining activity (Platelet-derived growth factor receptor beta (PDGFRB, Homo sapiens, UniProt P09619)).
The remaining activity was 108% (Serine/threonine-protein kinase Sgk3 (SGK3, Homo sapiens, UniProt Q96BR1)).
Serine/threonine-protein kinase D3 (PRKD3, Homo sapiens, UniProt O94806) — remaining activity: 96.1%.
It gave 97.8% for remaining activity (Mitogen-activated protein kinase kinase kinase kinase 5 (MAP4K5, Homo sapiens, UniProt Q9Y4K4)).
Activin receptor type-1 (ACVR1, Homo sapiens, UniProt Q04771) — remaining activity: 101%.
It gave 100% for remaining activity (Tyrosine-protein kinase HCK (HCK, Homo sapiens, UniProt P08631)).
The remaining activity was 98% (Insulin receptor-related protein (INSRR, Homo sapiens, UniProt P14616)).
It gave 109% for remaining activity (Phosphorylase b kinase gamma catalytic chain, liver/testis isoform (PHKG2, Homo sapiens, UniProt P15735)).
The remaining activity was 98.5% (BDNF/NT-3 growth factors receptor (NTRK2, Homo sapiens, UniProt Q16620)).
It gave 104% for remaining activity (RAF proto-oncogene serine/threonine-protein kinase (RAF1, Homo sapiens, UniProt P04049)).
The remaining activity was 96.5% (Serine/threonine-protein kinase TAO1 (TAOK1, Homo sapiens, UniProt Q7L7X3)).
The remaining activity was 110% (Serine/threonine-protein kinase PLK1 (PLK1, Homo sapiens, UniProt P53350)).
It gave 102% for remaining activity (Serine/threonine-protein kinase ULK1 (ULK1, Homo sapiens, UniProt O75385)).
The remaining activity was 105% (Serine/threonine-protein kinase VRK1 (VRK1, Homo sapiens, UniProt Q99986)).
It gave 93.8% for remaining activity (Receptor-interacting serine/threonine-protein kinase 2 (RIPK2, Homo sapiens, UniProt O43353)).

Series 2
SMILES: CC(C)n1cnc(-c2ccc(F)cc2)c1-c1ncc(C(=O)Nc2ccc(N3CCN(C)CC3)cc2)[nH]1
It gave 0% for “patients with adverse event” (item: skin papilloma, maximum grade 5; idiopathic pulmonary fibrosis patients; dose not given, all compound arms pooled).
For Phase 2a trial, item: hepatobiliary disorders; human, idiopathic pulmonary fibrosis; 60 mg once daily, grade 4: “patients with adverse event” read 0%.
The “patients with adverse event” was 0% (Phase 2a trial, item: blood creatine phosphokinase increased; human, idiopathic pulmonary fibrosis; all compound arms total, grade 3).
The “patients with adverse event” was 0% (Phase 2a trial, item: hypercholesterolaemia; human, idiopathic pulmonary fibrosis; 60 mg once daily, grade 1).
item: periorbital oedema, grade 3; idiopathic pulmonary fibrosis patients; oral, 60 mg once daily — “patients with adverse event”: 0%.
Phase 2a trial, item: blood creatinine increased; human, idiopathic pulmonary fibrosis; all compound arms total, grade 2 — “patients with adverse event”: 0%.
The “patients with adverse event” was 0% (Phase 2a trial, item: hepatic steatosis; human, idiopathic pulmonary fibrosis; 60 mg once daily, grade 4).
It gave 0% for “patients with adverse event” (Phase 2a trial, item: hypercholesterolaemia; human, idiopathic pulmonary fibrosis; 30 mg once daily, grade 5).
Phase 2a trial, item: blood glucose increased; human, idiopathic pulmonary fibrosis; all compound arms total, grade 5 — “patients with adverse event”: 0%.
Phase 2a trial, item: haemorrhoids; human, idiopathic pulmonary fibrosis; all compound arms, grade 4 — “patients with adverse event”: 0%.
Phase 2a trial, item: blood pressure increased; human, idiopathic pulmonary fibrosis; 30 mg once daily, grade 5 — “patients with adverse event”: 0%.
Phase 2a trial, item: hypercholesterolaemia; human, idiopathic pulmonary fibrosis; all compound arms total, grade 5 — “patients with adverse event”: 0%.

Series 3
Organism: Plasmodium berghei
Action: inhibitor
Cell line: Huh-7
Strain: GFP-expressing sporozoites, liver stage
Concentration: 10 µM
Time: 24 h
Relative to: untreated control
NC(CO)C(=O)NNCc1ccc(O)c(O)c1O (stereo not shown) has an infection rate of 83%.
CN(C)CCC=C1c2ccccc2CCc2ccccc21 has an infection rate of 112%.
For CN1CCN(C(c2ccccc2)c2ccc(Cl)cc2)CC1 (stereo not shown), the infection rate was 66.2%.
With CCCC(=O)Nc1ccc(OCC(O)CNC(C)C)c(C(C)=O)c1 (stereo not shown) the infection rate was 30.1%.
CN(C)/N=N/c1[nH]cnc1C(N)=O gave an infection rate of 69.3%.
C[C@H](CCC(=O)O)[C@H]1CC[C@H]2[C@@H]3C(=O)C[C@@H]4CC(=O)CC[C@]4(C)[C@H]3CC(=O)[C@]12C has an infection rate of 107%.
CS(=O)(=O)OCCCCOS(C)(=O)=O has an infection rate of 106%.
Cn1cnc([N+](=O)[O-])c1Sc1ncnc2[nH]cnc12 has an infection rate of 76.7%.
O=C(OOC(=O)c1ccccc1)c1ccccc1 gave an infection rate of 96.1%.
OC[C@@H](O)[C@@H](O[C@@H]1O[C@H](CO)[C@H](O)[C@H](O)[C@H]1O)[C@H](O)[C@@H](O)CO gave an infection rate of 97.5%.
The infection rate of C#C[C@]1(O)CC[C@H]2[C@@H]3CCc4cc(O)ccc4[C@H]3CC[C@@]21C is reported as 155%.
The infection rate of O=C(O)c1cc(-c2ccc(F)cc2F)ccc1O is reported as 72.7%.
The infection rate of NCCCCCC(=O)O is reported as 99.1%.
CCCNC(=O)NS(=O)(=O)c1ccc(Cl)cc1 gave an infection rate of 111%.
With Oc1ccc(Cl)c2cccnc12 the infection rate was 5.14%.
Oc1ncnc2[nH]ncc12 gave an infection rate of 102%.
With CCCCN(CCCC)CCCOC(=O)c1ccc(N)cc1 the infection rate was 112%.
The infection rate of CC(=O)c1ccc2c(c1)N(CCCN(C)C)c1ccccc1S2 is reported as 102%.
With CC(=O)Nc1c(I)cc(I)c(C(=O)O)c1I the infection rate was 80.1%.
With CC(C)NC(=N)NC(=N)Nc1ccc(Cl)cc1 the infection rate was 5.06%.
NS(=O)(=O)c1cc2c(cc1Cl)NC(C1CC3C=CC1C3)NS2(=O)=O (stereo not shown) has an infection rate of 98.1%.
With NC(=O)NC1NC(=O)NC1=O (stereo not shown) the infection rate was 88.4%.
With CN(C)CCOC(C)(c1ccccc1)c1ccccn1 (stereo not shown) the infection rate was 104%.
With NS(=O)(=O)c1cc(C2(O)NC(=O)c3ccccc32)ccc1Cl (stereo not shown) the infection rate was 101%.
C=C1CC[C@H](O)C/C1=C/C=C1\CCC[C@]2(C)[C@@H]([C@H](C)/C=C/[C@H](C)C(C)C)CC[C@@H]12 has an infection rate of 107%.

Series 4
Structure (SMILES): Cn1nc(C(F)(F)F)cc1-c1cnc(N2CCc3cc(S(=O)(=O)Nc4c(F)cc(Cl)cc4F)cc(N4CCCC4=O)c32)nc1
Method: competition with immobilised ligand
Concentration: 1 µM
For Serine/threonine-protein kinase VRK2 (VRK2, Homo sapiens, UniProt Q86Y07); cell-free assay: remaining binding read 61%.
The remaining binding was 100% (Cyclin-dependent kinase-like 2 (CDKL2, Homo sapiens, UniProt Q92772); binding).
The remaining binding was 88% (Aurora kinase A (AURKA, Homo sapiens, UniProt O14965); cell-free assay).
The remaining binding was 100% (Myosin-IIIb (MYO3B, Homo sapiens, UniProt Q8WXR4); binding).
For Aurora kinase B (AURKB, Homo sapiens, UniProt Q96GD4); cell-free assay: remaining binding read 86%.
For Calcium/calmodulin-dependent protein kinase type II subunit beta (CAMK2B, Homo sapiens, UniProt Q13554); cell-free assay: remaining binding read 92%.
The remaining binding was 86% (Dual specificity protein kinase CLK2 (CLK2, Homo sapiens, UniProt P49760); cell-free assay).
The remaining binding was 100% (Receptor-type tyrosine-protein kinase FLT3 (FLT3, Homo sapiens, UniProt P36888, K663Q); cell-free assay).
It gave 93% for remaining binding (Calcium/calmodulin-dependent protein kinase kinase 2 (CAMKK2, Homo sapiens, UniProt Q96RR4); cell-free assay).
The remaining binding was 81% (Tyrosine-protein kinase JAK3, JH1 (JAK3, Homo sapiens, UniProt P52333); cell-free assay).

Excerpt of the above (series 1):
It gave 102% for remaining activity (Fibroblast growth factor receptor 2 (FGFR2, Homo sapiens, UniProt P21802)).
The remaining activity was 96.5% (Serine/threonine-protein kinase TAO1 (TAOK1, Homo sapiens, UniProt Q7L7X3)).
It gave 109% for remaining activity (Phosphorylase b kinase gamma catalytic chain, liver/testis isoform (PHKG2, Homo sapiens, UniProt P15735)).
The remaining activity was 110% (Serine/threonine-protein kinase PLK1 (PLK1, Homo sapiens, UniProt P53350)).
